Results of several laboratories.
Each numbered part is a random draw from the data of one study; scales do not carry over between parts.

Series 1 — technique: RNA Bind-n-Seq; molecule type: RNA; sample: in vitro; concentration: 1 µM; setting: whole 134-nt RNA, ends assumed; with: 150 mM KCl; relative to: input library; direction: higher = stronger binding
Target: Ras GTPase-activating protein-binding protein 1, RRM domain (G3BP1, Homo sapiens, UniProt Q13283)
Sequence of UniProt Q13283 (whole entry, looked up): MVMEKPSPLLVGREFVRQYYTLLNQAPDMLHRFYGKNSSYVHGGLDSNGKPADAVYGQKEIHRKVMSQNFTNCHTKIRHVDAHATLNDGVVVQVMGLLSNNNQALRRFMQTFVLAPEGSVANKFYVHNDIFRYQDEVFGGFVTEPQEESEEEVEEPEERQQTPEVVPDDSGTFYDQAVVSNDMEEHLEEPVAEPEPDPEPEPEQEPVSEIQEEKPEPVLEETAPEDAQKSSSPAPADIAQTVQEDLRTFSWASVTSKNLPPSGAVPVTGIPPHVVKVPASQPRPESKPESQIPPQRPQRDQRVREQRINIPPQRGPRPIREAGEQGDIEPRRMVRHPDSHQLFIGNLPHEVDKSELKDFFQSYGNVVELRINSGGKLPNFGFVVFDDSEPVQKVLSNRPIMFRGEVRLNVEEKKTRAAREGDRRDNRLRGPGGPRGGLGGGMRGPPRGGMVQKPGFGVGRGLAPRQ
All sequences stand within: GGGAGUUCUACAGUCCGACGAUC … UGGAAUUCUCGGGUGUCAAGG
With `UCCUGUGCUACACAUCGUAUGUACCGAAUCGGGGCCCCCCGGCCCCCCGGGCCCCCCGGGAAAGUAUUAUGUUACGCCGUUCGGAUCUGC` the log2 enrichment was -0.375.
With `ACCAUGCAGGUGGGCAUCUUUAGGAAGUGGGGCAAGGGGGGGAUAGGGAGGGGGGUAACACUUUGGGAACAGGUGGUCCCAGGUCGUUUC` the log2 enrichment was -0.388.
For `CAAGUCCUGUGCUACACAUCGUAUGUACCGAAUCGGGUUUUUUUGGGUGGGUGGGAAAGUAUUAUGUUACGCCGUUCGGAUCUGCACUUC`, the log2 enrichment was 0.454.
`CUGUGCUACACAUCGUAUGUACCGAAUCGGUUUUUUUGGGGUUUUUUUGGGGUUUUUUUGGAAAGUAUUAUGUUACGCCGUUCGGAUCUG` has a log2 enrichment of -0.286.
`CCUGUGCUACACAUCGUAUGUACCGAAUCGGGGUUUGGGGUUUUUUUGGGGAAAAAGGGGAAAGUAUUAUGUUACGCCGUUCGGAUCUGC` has a log2 enrichment of 1.03.
For `AAGUCCUGUGCUACACAUCGUAUGUACCGAAUCGGAAAAAAAGGUUUGGAAAAAGGAAAGUAUUAUGUUACGCCGUUCGGAUCUGCACUU`, the log2 enrichment was -0.211.
With `UUCCGGAAGAAGAAGCUCCGAUUUGGCCGGAGCCGGAUCCACGAGUGGGGUCUGUUUGCCAUGGAACCCAUUGCUGCUGACGAGAUGGUC` the log2 enrichment was -0.224.
For `UGGCCCUGGUGGCAUGCGGGGAGGAAGAGGUGGCCUCAUGGAUCGUGGUGGUCCCGGUGGAAUGUUUAGAGGUGGCCGUGGUGGAGACAG`, the log2 enrichment was 0.33.
With `AGUCCUGUGCUACACAUCGUAUGUACCGAAUCGGUUUGGUUUUUUUGGUUUUUUUGGAAAGUAUUAUGUUACGCCGUUCGGAUCUGCACU` the log2 enrichment was -0.215.
With `GUCCUGUGCUACACAUCGUAUGUACCGAAUCGGGGUUUUUUUGGGGUUUGGGGUGGGGAAAGUAUUAUGUUACGCCGUUCGGAUCUGCAC` the log2 enrichment was 0.735.

Series 2 — technique: universal PBM; molecule type: double-stranded DNA, one strand shown; sample: in vitro; concentration: not given; direction: higher = stronger binding
Target: Sal-like protein 4, full length isoform B (SALL4, Homo sapiens, UniProt Q9UJQ4-2, residues 1-616)
Setting: 8-mer, flanks averaged, mean of replicates
The E-score of `AAGACCGC` is reported as -0.0822.
With `CGGGGAAG` the E-score was -0.226.
The E-score of `AATCCCTG` is reported as -0.143.
For `CACTAACG`, the E-score was 0.0198.
`AATCACAC` has an E-score of 0.183.
With `ACGTGGGC` the E-score was -0.135.
With `AGTTAAGA` the E-score was 0.0557.
`AGCGCGAG` gave an E-score of -0.226.
`AGCGCCGC` has an E-score of -0.316.
For `GAATCCCC`, the E-score was -0.297.
`AGCAGTTG` gave an E-score of -0.256.
For `ACTGAAAC`, the E-score was 0.154.
`AGGCGCAA` has an E-score of -0.0613.
`CGTATTAC` has an E-score of 0.174.
`AGGAAACC` gave an E-score of -0.17.
`GACGGTAA` has an E-score of -0.00323.
The E-score of `CTGTGGGC` is reported as -0.251.
For `CGCCCCCC`, the E-score was -0.464.
With `AACCGCAC` the E-score was -0.244.
For `ACTCCGAG`, the E-score was -0.136.
`CCTAGAAA` gave an E-score of -0.0169.

Series 3 — technique: protein binding microarray; molecule type: double-stranded DNA, one strand shown; sample: in vitro; concentration: not given; relative to: not given; direction: higher = stronger binding
Target: Histone acetyltransferase KAT6A, winged helix 1, GST fusion (KAT6A, Homo sapiens, UniProt Q92794, residues 1-85)
Setting: 8-mer, flanks averaged, mean of 2 arrays, mostly near background
Residues (chain): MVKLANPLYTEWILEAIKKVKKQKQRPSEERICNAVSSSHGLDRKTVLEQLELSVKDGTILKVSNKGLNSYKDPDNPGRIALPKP
The E-score of `GACAGGAC` is reported as -0.0551.
For `TCAGTAAA`, the E-score was -0.00453.
For `CGGCCCTA`, the E-score was 0.209.
`CGGGGTAG` has an E-score of 0.172.
For `GCGCGGCA`, the E-score was 0.449.
For `AGTACGCC`, the E-score was 0.208.
For `ACCCTGCA`, the E-score was -0.171.
With `GGAAGCCC` the E-score was 0.0899.
The E-score of `GAAATTGA` is reported as -0.0191.
The E-score of `CCATCCCA` is reported as -0.26.
`TTGAACAA` has an E-score of -0.119.
With `GAAGGGAA` the E-score was -0.115.
The E-score of `AATCCTGA` is reported as -0.152.
With `CCCCCAGC` the E-score was 0.0544.
`ATAATTGC` gave an E-score of 0.227.
The E-score of `AAGAGTAG` is reported as -0.059.
With `AATCCTAG` the E-score was -0.215.
`ACTTATGG` has an E-score of -0.146.
`CAGTGTGC` has an E-score of -0.119.
The E-score of `AATAGGGG` is reported as -0.0604.
The E-score of `CTAGAAGC` is reported as 0.0991.
`ATTGGCGG` has an E-score of 0.142.
`AGTACATG` has an E-score of -0.135.
For `AGGTCCTC`, the E-score was -0.0707.
With `GGACCTAC` the E-score was -0.0335.

Series 4 — technique: RNA Bind-n-Seq; molecule type: RNA; sample: in vitro; concentration: 365 nM; relative to: no-protein control; direction: higher = stronger binding
Target: RNA binding protein fox-1 homolog 2, RRM domain, GST-SBP tag (RBFOX2, Homo sapiens, UniProt O43251-10, residues 100-194)
Setting: natural RNA segment, single round, ends assumed
All sequences stand within: GGGAGUUCUACAGUCCGACGAUC … UGGAAUUCUCGGGUGCCAA
Construct (chain): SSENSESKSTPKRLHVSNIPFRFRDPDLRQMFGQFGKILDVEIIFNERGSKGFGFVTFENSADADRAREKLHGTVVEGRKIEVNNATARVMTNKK
Under “RBNS enrichment (R)”, `CCCAUGCUGGCCAGGGGAACCCUCAGGGGACUCCUCUGGGUGAAGGGCAGAUGCUAGCACUGCCUGUUCUUAGUUCUCCUUCCAUUCCUGUCCUGAAGUUCUAACUGCCG` is recorded as 0.438.
For `CUCGCGGAGCUUGAGUUCUUCAUGGUAGAAAACAGUUGCAUUUCCGUAAAGGGUGGAGGGCUUGAGGCUUAAAUAUAUGAGUAUGUUUAUACUGCUCUACUGCACUUAGA`, “RBNS enrichment (R)” read 0.742.
Under “RBNS enrichment (R)”, `AAGGCCAGGGCAGAGGGCCUCACCGCCUCCCGGGCCUGCUGUCAGCUUGCAGCCCGGGGACAGAGGCCAGCUGGGAUCUGCCUGAGGACAGAGAACAUGGUCUCCUGCAG` is recorded as 0.517.
`GUGAACAGAGCGAGACGCAGUUAUGUGUGCACCGGCAGAUACUGACACUGAUGGCUGACAGUGUGUGCGUCCUUCACGCCGGUGUGCAACGUACGCAGUGUUUACUCAGU`: “RBNS enrichment (R)” 1.12.
For `AGUGGGACACCAAGGUAGAAAGGGAGUAAGAAUGGUUUUCCAGUGAGUUGAAUGUGCACACGUUUAUGAGAGGCCUUUGGGUGAGCUUUCUGCUCAUUCCUUGGUUUGUC`, “RBNS enrichment (R)” read 1.87.
For `CCUUCCCAAGUCCAGCCAUGCCCAGAUGCCCGGAGGGAAAACUGACCCCCAGCCAGUAGACAUUGGCUAAGAACACAGAAUCUUCUGACCAAACACGCUUUCAGCAGCUG`, “RBNS enrichment (R)” read 0.342.
`AUGAGUGUGUGUUCUUCCCCAAGGUCCCCCCACAGCUCCAGGACACCGCUGUCCUGGCAUUUGUGGCCACUCACUUUGUAGGAAACUCAUCUCCUUCCUGAGGAGCCGGG` — result for “RBNS enrichment (R)”: 0.206.
Under “RBNS enrichment (R)”, `GGUUCCCUAGCAACCAGCCCAGCAUUGGGUCCAGUUUUCAGCAACCAGUUAGAUUCUUGCUCCCAGAUUGACUGUUAGUUUUCAGGAAACAAGGCUAUCUUUGGUCAUAU` is recorded as 0.247.
Under “RBNS enrichment (R)”, `AGCCUGGCAUGCCAGGUCCUCAGACCCUAUGUUCUAUCUCAGCCAGGCCCACUCAGGAUGCCCAUGCCCAGGGCAGCAGGCUUCUGGGGUUCAGAAUUGUAGCCUCAGCC` is recorded as 1.55.
`UUUUUGGUAGAUCGUGGUAGAUCUGGUACUCCUAACUCCCUGGUCCUCAGGCGGCUCCUCUGUAAAAUGAGAAAAUGUAUAUUUUUUUACUUCAUGAGAUCUUUGCUGGA`: “RBNS enrichment (R)” 0.316.
For `CUCAUGGGGCGGCUCAUGAGGAGCUGGGGGCAGGGUAGAAUGGGACCGAGCAGGAACAGAGGCUGCAGUUGGGCUGGCUGACUGAGGGUGCCUGGCUGCCCAGCCUGCGG`, “RBNS enrichment (R)” read 0.819.
`UUUUUCAUAGUGAAAUUGUGUUUCAGGCUUAGUCUGACCUUUCUGGUUUCUUCAUUUUCUUCCAUUACUUAGGAAAGAGUGGAAACUCCACUAAAAUUUCUCUGUGUUGU`: “RBNS enrichment (R)” 0.297.

For quick reference, copied from above (series 3):
For `CGGCCCTA`, the E-score was 0.209.
`CGGGGTAG` has an E-score of 0.172.
For `GCGCGGCA`, the E-score was 0.449.
For `AGTACGCC`, the E-score was 0.208.
For `ACCCTGCA`, the E-score was -0.171.
With `GGAAGCCC` the E-score was 0.0899.
The E-score of `GAAATTGA` is reported as -0.0191.
The E-score of `CCATCCCA` is reported as -0.26.
`TTGAACAA` has an E-score of -0.119.
With `GAAGGGAA` the E-score was -0.115.
